Results of several laboratories.
A part holds a random share of what one study measured.

Series 1
Target: RNA binding protein fox-1 homolog 2, RRM domain, GST-SBP tag (RBFOX2, Homo sapiens, UniProt O43251-10, residues 100-194)
Technique: RNA Bind-n-Seq
Molecule type: RNA
Matrix: in vitro
Tested at: 365 nM
Notes: natural RNA segment, single round, ends assumed
Relative to: no-protein control
Direction: higher = stronger binding
Quantity: RBNS enrichment (R)
Construct (chain): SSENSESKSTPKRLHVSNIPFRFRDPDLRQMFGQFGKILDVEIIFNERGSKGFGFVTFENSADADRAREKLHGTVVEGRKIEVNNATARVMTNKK
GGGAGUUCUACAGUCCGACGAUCCUUAGAGGAUCUCCGAGAGGUCCCCGCAGCUCUAGGGAGAUCUGAUUUUGUGUUUUUUGUUUAAGUACUUCACACAGAAGCCUAGGUAGAUUUAAAAUGGGGUGCUCAGGUGGAAUUCUCGGGUGCCAA: 0.505
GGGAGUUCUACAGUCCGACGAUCAACAACAAAAACAACAACAAAACAAACGUUUACAUCCUAGGAGGGAAAAAAAACAAAAGUCUUUGUAAUUUUGCUUAAAUUUGCCAGACACAGAUUUAGAAAUACAUUCUUGGAAUUCUCGGGUGCCAA: 0.488
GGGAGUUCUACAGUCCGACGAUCCUCUGUACACAUUUUUAAACCUGGCAAAAGAUGAAGAGAAUAUUGUAAAUAUAAAAGUUUAACUGUUGUUGUGUUGUCUCCUGUCGUGUUAGAAGGUAGGUGGAGGGUGGUGGAAUUCUCGGGUGCCAA: 0.94
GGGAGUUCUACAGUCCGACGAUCGUGCCAUAGAAUGGCACAUGUCAUUGCCCACUUCUGUGUAGACAUGGUUCUGGUUUAACUAAUAUUUGUCUGUGUGCUACUAACAGAUUAUAAUAAAUUGUCAUCAGUGAUGGAAUUCUCGGGUGCCAA: 0.597
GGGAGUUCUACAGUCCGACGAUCCACAUUUCUAAAGAAAGAGUGAAUAGGCUGGGCAUGGUGGCUCAAGCCUCUAAUCUCAACGCUUUGGGAGGCUGAGGCAGGAGGAUCGCUUGAGGCCAGGAGUUUGAGACUGGAAUUCUCGGGUGCCAA: 0.563
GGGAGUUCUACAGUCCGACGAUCAGAGCGGGUCGGUGGGAAACAGGGUGAACUUUAGCUUCCAUCAACAGCUCUGGUAGCAAAACCAGUCCCCUACCCCCUAGAGAAUGCAUCCGUUUCCCCACCUGAUAUGGUGGAAUUCUCGGGUGCCAA: 0.41
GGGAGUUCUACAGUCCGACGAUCGUGCUGUUUUCCAUUCGCUUCCACGGCUUCUGCCUCCUGCCAUAAAACCAGCGAGUGUCGUGGUGCAGGCAGGCCCUGUGGCCUGCUGGGCUGAGGGAAGUCAGAGCCCCUGGAAUUCUCGGGUGCCAA: 0.268
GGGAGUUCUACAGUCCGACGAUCACCCACCAGUGACUUGACUGCUCUGCACCUUUGCAUCUUCAGAGCUGCUGCGUCUAUCAGGAGAGCAGGAUCAGAUUAUGGUAUCCAGAUACCAGUAGAAGAAUUGGAUGUGGAAUUCUCGGGUGCCAA: 1.39
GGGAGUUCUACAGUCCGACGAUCAUCCAUUCCCACCAGUCCAUUUCAGUUGCCACCAGCCUGAACCACUCGGUACCUGGUGUUAACUGGAGCCCUGUUUACAAGGCGGAGUCGGGUCUUGCUGACUUCUCUUCUGGAAUUCUCGGGUGCCAA: 0.201
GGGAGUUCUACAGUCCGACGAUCAGCAUUGCAGCCUAUGUGCAAACCCAGAGGAAAAGUAUCUCUGUCAAGACAGCUCCAGUAUCAUGCAGCUUUUUAUGUUUGCACUCAAAAAGCCAGUGCCUUCUGGCUGGUGGAAUUCUCGGGUGCCAA: 0.372
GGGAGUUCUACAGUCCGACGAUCCCCAGGGCACCUAGCUGUCCCUGCUGGUCCUGGGGCUGCCAGAAUUCCCUUGGGCGCCAAGCAACCUGCCAGGUAGCCAGUCCCUCUGUUACAAGCCUUUGCAUCUGGAUUGGAAUUCUCGGGUGCCAA: 0.367
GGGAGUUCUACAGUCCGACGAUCAUAAUCUUGGUUAUAAGGGAGUUAAAACAAUGCUGUAAUAAAUAAAGUGCUUCAUGUGAUCAAAAUCAAAUUUGUUAUCCUCUCUCAAAAGCCUGCUCUCCCUCUUACCUUGGAAUUCUCGGGUGCCAA: 0.527

Series 2
Target: PABPC1L2, full length, GST fusion (mouse, UniProt A0ABA7IW68)
Technique: RNAcompete
Molecule type: RNA
Matrix: in vitro
Tested at: 20 nM
Notes: 7-mer, probes averaged, single round
Relative to: mean of 7-mers
Direction: higher = stronger binding
Quantity: 7-mer Z-score
Target sequence (chain): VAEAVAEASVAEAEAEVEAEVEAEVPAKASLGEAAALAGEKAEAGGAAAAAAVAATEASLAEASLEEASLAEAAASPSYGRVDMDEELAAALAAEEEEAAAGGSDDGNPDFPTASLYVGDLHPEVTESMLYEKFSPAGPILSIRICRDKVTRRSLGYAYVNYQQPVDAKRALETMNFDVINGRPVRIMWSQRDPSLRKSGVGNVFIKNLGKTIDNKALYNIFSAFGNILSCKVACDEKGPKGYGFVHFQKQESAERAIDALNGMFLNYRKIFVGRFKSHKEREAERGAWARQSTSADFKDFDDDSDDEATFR
CCCUAUC: -0.387
GGAUGUG: 0.075
GGAGGGG: 0.318
UACACAG: -0.2
CAUACCC: -0.425
UGCGGAA: 0.171
UCUUUGC: -0.49
CGGGUCU: -0.0554
GCCCGUG: -0.258
CUGACGA: -0.0826
AUCGGAC: 0.111
UGACAGU: -0.15
AAUAGCA: 0.191
GGUAACU: -0.146
UUCCGAC: -0.168
AAACACC: 1.78
GCAACGC: -0.0047

Series 3
Target: Interferon regulatory factor 7, full length, phosphomimetic (IRF7, Homo sapiens, UniProt Q92985, residues 1-503, S101K/S471D/S472D/S475D/S476D/S477D/S483D/S484D/S487D)
Sequence of UniProt Q92985 (whole entry, unmodified, looked up): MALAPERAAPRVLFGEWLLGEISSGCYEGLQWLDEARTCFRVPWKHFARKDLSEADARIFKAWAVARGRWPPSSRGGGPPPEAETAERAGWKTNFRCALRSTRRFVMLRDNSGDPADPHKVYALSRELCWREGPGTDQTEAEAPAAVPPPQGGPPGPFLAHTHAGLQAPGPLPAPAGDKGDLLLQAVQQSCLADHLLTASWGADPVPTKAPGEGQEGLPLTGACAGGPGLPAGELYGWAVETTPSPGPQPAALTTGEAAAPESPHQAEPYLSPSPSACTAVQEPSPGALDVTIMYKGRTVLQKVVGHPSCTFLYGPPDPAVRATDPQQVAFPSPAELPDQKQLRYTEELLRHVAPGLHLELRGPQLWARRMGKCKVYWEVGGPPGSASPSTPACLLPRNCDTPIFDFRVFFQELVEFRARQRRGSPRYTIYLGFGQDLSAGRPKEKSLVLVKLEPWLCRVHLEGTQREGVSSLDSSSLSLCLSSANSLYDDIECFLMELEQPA
Technique: protein-binding microarray
Molecule type: double-stranded DNA, one strand shown
Matrix: in vitro
Tested at: 250 nM
Notes: 60-bp whole probe
With: salmon DNA 0.4 mg/ml
Relative to: random background probes
Direction: higher = stronger binding
Quantity: log fluorescence
All sequences stand within: GCCTAGCAC … GTCTTGATTCGCTTGACGCTGCTG
GACGATATCCTTCTCCTGACGTGCTAG: 0.117 z-score
AACGGTCTCGGTTTCGGGACGTGCTAG: 7.98 z-score
TCAAGGCTGTGTTTTCACACTGTGCTA: -0.768 z-score
GACGGTATCGACTTTCGGGTCGTGCTA: 2.15 z-score
TTAGGTATCGGTCTCGGCTAGTGCTAG: 0.965 z-score
TCATTAATGAAAATTCTAACTGTGCTA: 0.381 z-score
TCAGGTTTCTATATTTGACTGTGCTAG: 3.37 z-score
CTCACCATCATCCTCACTGCGTGCTAG: 0.364 z-score
TCAGATATCTTTTTCCTACTGTGCTAG: 1.05 z-score
GACGATTTCGGGTTGCGAGACGTGCTA: 2.35 z-score
TATTTTATATGCTATGTACTGGTGCTA: 0.858 z-score
GCCGATCTCAGTTTCGAGACGTGCTAG: 3.62 z-score
GCAGGGTATAGGCATTCCCTGTGCTAG: -0.796 z-score
GACGATCTCAGACTAGAGACGTGCTAG: -0.276 z-score
GATGATTTCAGTTTCGAGACGTGCTAG: 4.87 z-score

Series 4
Target: Ras GTPase-activating protein-binding protein 1, RRM domain (G3BP1, Homo sapiens, UniProt Q13283)
Sequence of UniProt Q13283 (whole entry, looked up): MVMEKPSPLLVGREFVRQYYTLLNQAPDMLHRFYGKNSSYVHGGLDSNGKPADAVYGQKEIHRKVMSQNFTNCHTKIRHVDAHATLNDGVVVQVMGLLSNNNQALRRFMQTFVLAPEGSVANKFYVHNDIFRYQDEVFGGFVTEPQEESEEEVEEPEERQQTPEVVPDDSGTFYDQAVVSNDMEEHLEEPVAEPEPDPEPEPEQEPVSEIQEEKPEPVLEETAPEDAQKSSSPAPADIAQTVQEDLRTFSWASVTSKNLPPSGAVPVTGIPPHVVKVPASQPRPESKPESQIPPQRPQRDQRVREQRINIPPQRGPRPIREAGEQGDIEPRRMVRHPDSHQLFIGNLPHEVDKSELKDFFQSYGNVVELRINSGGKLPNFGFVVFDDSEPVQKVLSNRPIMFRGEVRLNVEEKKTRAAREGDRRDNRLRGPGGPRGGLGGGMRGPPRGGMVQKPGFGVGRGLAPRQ
Technique: RNA Bind-n-Seq
Molecule type: RNA
Matrix: in vitro
Tested at: 1 µM
Notes: whole 134-nt RNA, ends assumed
With: 150 mM KCl
Relative to: input library
Direction: higher = stronger binding
Quantity: log2 enrichment
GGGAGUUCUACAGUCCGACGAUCUCAAGUCCUGUGCUACACAUCGUAUGUACCGAAUCGGGCCCGGCCCGGGCCCGGGAAAGUAUUAUGUUACGCCGUUCGGAUCUGCACUUCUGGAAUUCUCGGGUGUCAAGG: -0.541
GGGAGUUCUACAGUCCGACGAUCAGUCCUGUGCUACACAUCGUAUGUACCGAAUCAAACCCCCCCAAAUUUAAAUUUAAAAAAGUAUUAUGUUACGCCGUUCGGAUCUGCACUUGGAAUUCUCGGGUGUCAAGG: -0.114
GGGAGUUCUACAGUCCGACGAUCUAACUUUAGAGGAGGAUCUGAUGGAUAUGGCAGUGGACGUGGAUUCGGGGAUGGCUAUAAUGGGUAUGGAGGAGGACCUGGAGGUGGCAAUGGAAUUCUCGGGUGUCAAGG: -0.633
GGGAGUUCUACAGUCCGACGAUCCCUGUGCUACACAUCGUAUGUACCGAAUCGGGGAAAAAAAGGGGUGGGGUUUUUUUGGGGAAAGUAUUAUGUUACGCCGUUCGGAUCUGCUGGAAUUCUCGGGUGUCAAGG: 0.427
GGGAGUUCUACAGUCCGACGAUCACCAUGCAGGUGGGCAUCUUUGGGAAGUGGGGCAAGGGGGGGAUAGGGAGGGUGGUAACACUUUGGGAACAGGUGGUCCCAGGUCGUUUCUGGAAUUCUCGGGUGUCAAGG: 0.861
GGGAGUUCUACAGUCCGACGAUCUGGGAGGUGGACUUUGUUUAUUUUUUUAGCUCAUUUCCAGGGGUGGGAAUUUUUUUUUAAUAUGUGUCAUGAAUAAAGUUGUUUUUGAAAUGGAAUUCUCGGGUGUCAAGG: 1.78
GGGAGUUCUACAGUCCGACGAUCUGGCCCUGGUGGCAUGCGGGGAGGAAGAGGUGGCCUCAUGGAUCAUGGUGGUCCCGGUGGAAUGUUCAGAGGUGGCCGUGGUGGAGACAGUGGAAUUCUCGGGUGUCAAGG: 1.33
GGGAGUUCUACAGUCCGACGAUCGUCCUGUGCUACACAUCGUAUGUACCGAAUCAAAUUUUUUUAAAUUUUUAAACCCAAAAAAGUAUUAUGUUACGCCGUUCGGAUCUGCACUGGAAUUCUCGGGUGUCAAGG: -1.62
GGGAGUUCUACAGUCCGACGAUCAGUCCUGUGCUACACAUCGUAUGUACCGAAUCGGUUUUUUUGGUUUGGAAAAAAAGGAAAGUAUUAUGUUACGCCGUUCGGAUCUGCACUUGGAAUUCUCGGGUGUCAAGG: -0.244
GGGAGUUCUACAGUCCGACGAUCAAGUCCUGUGCUACACAUCGUAUGUACCGAAUCGGGGUUUUGGGUUUUGGUUUUGGAAAGUAUUAUGUUACGCCGUUCGGAUCUGCACUUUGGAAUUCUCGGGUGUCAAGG: -0.395
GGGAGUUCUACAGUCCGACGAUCUCCUGUGCUACACAUCGUAUGUACCGAAUCGGCCCCCCGGCCCCCCGGGGCCCCCCGGGAAAGUAUUAUGUUACGCCGUUCGGAUCUGCAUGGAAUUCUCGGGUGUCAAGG: -0.389
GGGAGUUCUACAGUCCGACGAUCUGGCCCUGGUGGCAUGCGGGGAGGAAGAGGUGGCCUCAUGGAUCGUGGUGGUCCCGGUGGAAUGUUCAAAGGUGGCCGUGGUGGAGACAGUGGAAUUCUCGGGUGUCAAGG: 2.08
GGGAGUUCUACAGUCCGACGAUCUGGCCCUGGUGGCUUGCGGGGAGGAAGAGGUGGCCUCAUGGAUCGUGGUGGUCCCGGUGGAAUGUUCAGAGGUGGCCGUGGUGGAGACAGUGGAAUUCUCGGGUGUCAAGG: 0.942
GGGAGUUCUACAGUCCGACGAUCCAAGUCCUGUGCUACACAUCGUAUGUACCGAAUCGGAGGUUUUUGGUUUUUUUGGAAAGUAUUAUGUUACGCCGUUCGGAUCUGCACUUCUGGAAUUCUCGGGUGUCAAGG: -0.276

Series 5
Target: Transcription factor SOX-2, HMG box (SOX2, Homo sapiens, UniProt P48431, residues 19-118)
Sequence of UniProt P48431 (19-118, looked up): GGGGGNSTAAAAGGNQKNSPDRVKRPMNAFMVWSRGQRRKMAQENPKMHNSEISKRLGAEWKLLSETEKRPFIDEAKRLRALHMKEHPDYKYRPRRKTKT
Technique: protein-binding microarray
Molecule type: double-stranded DNA, one strand shown
Matrix: in vitro
Tested at: not given
Notes: k-mer, scored over probes, only values ≥0.25
Direction: higher = stronger binding
Quantity: E-score
AATTGTA: 0.442
AGACAAT: 0.464
CCAATTC: 0.295
AATAATC: 0.344
AATAGGG: 0.297
ATTCACG: 0.317
CAATAAA: 0.309
AATACAA: 0.362
GATAATA: 0.354
ACAAAAA: 0.3
ATTGGGA: 0.274
ATTCATG: 0.444
AATTATA: 0.408
AGAATTG: 0.384
CCATTGA: 0.351
ATTGTCC: 0.455
ATGAAAT: 0.325
GCATTGA: 0.315

Some of these lines once more (series 5):
AATACAA: 0.362
GATAATA: 0.354
ACAAAAA: 0.3
ATTGGGA: 0.274
